Experimental data gathered from unrelated publications.
Protocols differ between the studies behind these lines. Numbers after ± are the reported error.

Nc1nc(-c2ccc(F)cc2F)nc2[nH]nc(Nc3ccc(F)cc3)c12 — IC50 (Human rhinovirus 8; cytopathic effect, inhibitor; HeLa): 11000 nM
O=C1Nc2ccccc2C1(c1c[nH]c2ccccc12)c1c[nH]c2ccccc12 — IC50 (Bifidobacterium longum; microbial growth, absorbance): 23000 nM
Cc1cccc(C)c1N(CC(=O)Nc1ccc(-c2ncon2)cc1)C(=O)C1CCS(=O)(=O)CC1 — IC50 (human alphaherpesvirus 1; K26 GFP, 3D adult human skin submerged; 48 h): 380 nM
Cc1ccc(-c2nc(N)c3c(Nc4ccc(F)cc4)n[nH]c3n2)cc1F — IC50 (Human rhinovirus 8; cytopathic effect, inhibitor; HeLa): 1700 nM
CC(C)CC(c1c[nH]c2ccccc12)c1c[nH]c2ccccc12 — IC50 (Bifidobacterium longum; microbial growth, absorbance): > 50000 nM
COC1CN([C@H]2CC[C@H]([C@@]3(C)Oc4c(Cl)cc(C(=O)NCc5c(SC)cc(C)[nH]c5=O)c(C)c4O3)CC2)C1 — log2 fold change (RNA-seq, item: TMTC1 mouse homolog; mouse, HT-1376 xenograft, whole blood; dose not given; baseline: vehicle): 2.15
COC1C=COC2(C)Oc3c(C)c(O)c4c(c3C2=O)C2=NC3(CCN(CC(C)C)CC3)NC2=C(NC(=O)C(C)=CC=CC(C)C(O)C(C)C(O)C(C)C(OC(=O)Nc2cnccn2)C1C)C4=O (stereo not shown) — IC50 (Mycobacteroides abscessus; bacterial growth; subsp. abscessus Bamboo): 18 nM
O=C(/C=C\n1cnc(-c2cc(C(F)(F)F)cc(C(F)(F)F)c2)n1)NNc1ccccn1 — IC50 (human alphaherpesvirus 1; K26 GFP, 3D adult human skin submerged; 48 h): 520 nM
O=Cc1c[nH]c2ccccc12 — IC50 (Bifidobacterium longum; microbial growth, absorbance): > 50000 nM
CCc1ccc(-c2nc(N)c3c(Nc4ccc(F)cc4)n[nH]c3n2)cc1 — IC50 (Human rhinovirus 8; cytopathic effect, inhibitor; HeLa): 570 nM
c1ccc2c(Cc3c(-c4c[nH]c5ccccc45)[nH]c4ccccc34)c[nH]c2c1 — IC50 (Bifidobacterium longum; microbial growth, absorbance): 49000 nM
CCN(CC)CC#CCNc1ccnc2cc(Cl)ccc12 — IC50 (Plasmodium falciparum; parasite growth; RF12): 71 nM
Cc1nc(N(C)C(=O)Cc2ccc(-c3ccccn3)cc2)sc1S(N)(=O)=O — IC50 (human alphaherpesvirus 1; K26 GFP, 3D adult human skin submerged; 48 h): 240 nM
CC(=O)C(C)(c1c[nH]c2ccccc12)c1c[nH]c2ccccc12 — IC50 (Bifidobacterium longum; microbial growth, absorbance): > 50000 nM
Cc1ncsc1-c1ccc(C(C)NC(=O)C2CC(O)CN2C(=O)C(NC(=O)CCCCCCCCCCN2CCCC(Nc3ncc(Cl)c(Nc4ccccc4S(=O)(=O)C(C)C)n3)C2)C(C)(C)C)cc1 (stereo not shown) — log2 fold change (22Rv1; RNA-seq, item: TRIM68 mRNA; concentration not given; baseline: DMSO): -1.38
COC1C=COC2(C)Oc3c(C)c(O)c4c(c3C2=O)C2=NC3(CCN(CC(C)C)CC3)NC2=C(NC(=O)C(C)=CC=CC(C)C(O)C(C)C(O)C(C)C(OC(=O)Nc2cccnn2)C1C)C4=O (stereo not shown) — IC50 (Mycobacteroides abscessus; bacterial growth; subsp. massiliense 095 clinical isolate; mixed morphotype): 38 nM
C=CC(=O)Nc1cccc(Cn2ncc3cnc(Nc4cnn(CCOC)c4)nc32)c1 — percent of control (EPHB2 human; binding, KINOMEscan; 100 nM; lower = stronger binding): 87%
Nc1nc(-c2ccccc2)nc2[nH]nc(Nc3c(F)cccc3F)c12 — IC50 (Human rhinovirus 8; cytopathic effect, inhibitor; HeLa): 12100 nM
COC(=O)C1=CO[C@@H](C)[C@@H]2Cn3ccc4c5ccccc5nc-4c3C[C@H]12 — IC50 (Plasmodium falciparum; growth; 3D7; 96 h): 166 ± 26 nM
COc1ccc(-c2nc(N3CCOCC3)c3sc(CN(C)c4ncc(C(=O)NO)cn4)cc3n2)cn1 — IC50 (human alphaherpesvirus 1; K26 GFP, 3D adult human skin air-liquid interface; 48 h): 240 nM
Cc1cccc(Nc2n[nH]c3nc(-c4ccc(F)cc4F)nc(N)c23)c1 — IC50 (Human rhinovirus 8; cytopathic effect, inhibitor; HeLa): 5590 nM
O=C(Nc1ccc([N+](=O)[O-])cc1Cl)c1cc(Cl)ccc1O — IC50 (human alphaherpesvirus 1; K26 GFP, 3D adult human skin air-liquid interface; 48 h): 250 nM
CNCc1ccc2c(c1)N(C(=O)OCc1c(F)c(F)c(F)c(F)c1F)[C@H](CNC(=N)N)[C@H]2NC(=O)C(=O)Nc1ccc(Cl)c(F)c1 — IC50 (HIV-1; viral infection; TZM-bl, CRF02_AG 235-47 Env pseudovirus): 583 nM
Nc1ccn([C@@H]2O[C@H](CO)[C@@H](O)C2(F)F)c(=O)n1 — IC50 (human alphaherpesvirus 1; viral replication; K26 GFP-expressing, 3D neonatal skin, air-liquid interface; 48 h): 170 ± 130 nM
CS(=O)(=O)c1ccc(Nc2n[nH]c3nc(-c4ccccc4)nc(N)c23)cc1 — IC50 (Human rhinovirus 8; cytopathic effect, inhibitor; HeLa): 13800 nM
